Measured values from different studies.
“And” joins repeats or separate records; there may be more than shown. ± gives the spread as reported. Values after ≈ are worked out from the molar mass of the structure shown.

Compound	test	test system	conditions	scale	quantity	result
CC(=CCC(O)C(C)=Cc1csc(C)n1)CC=CC(C)C(O)C(C)C(=O)C(C)(C)C(O)CC(=O)O (stereo not shown)	–	human, plasma	intravenous infusion, 6.5 mg/m2 KOS-1584, 3 h infusion, cycle 1	reference: metabolite over KOS-1584	AUC ratio	9.27 ± 2.52%
CCCCCCCC/C=C\CCCCCCCCOP(O)(O)=S.N	–	mouse, male, irradiated	subcutaneous, single dose 24 h after irradiation, together with: 15.6 Gy partial-body irradiation	–	Vz/F	1.28 L/kg
CSCC[C@@H]1NC(=O)[C@@H]2CSSC[C@H](NC(=O)[C@H](CO)NC(=O)[C@H](C)N)C(=O)N[C@@H](CCCNC(=N)N)C(=O)N[C@@H]([C@@H](C)O)C(=O)N3CCC[C@H]3C(=O)N[C@@H](CCCCN)C(=O)N[C@@H](CC(=O)O)C(=O)N[C@H]3CSSC[C@H](NC(=O)[C@H](CCCCN)NC(=O)[C@H](CCCNC(=N)N)NC(=O)[C@H](CC(N)=O)NC1=O)C(=O)N[C@@H](CCCCN)C(=O)N[C@H]1CSSC[C@H](NC(=O)[C@@H]4CCCN4C(=O)[C@H](CC(=O)O)NC(=O)[C@H](C)NC3=O)C(=O)N[C@@H](C)C(=O)N[C@@H](CCCCN)C(=O)N[C@@H](CCC(=O)O)C(=O)N[C@@H]([C@@H](C)O)C(=O)NCC(=O)N[C@@H](CSSC[C@@H](C(N)=O)NC(=O)[C@H](CCCNC(=N)N)NC(=O)[C@H](CC(N)=O)NC1=O)C(=O)N1CCC[C@H]1C(=O)N[C@@H](Cc1ccc(O)cc1)C(=O)NCC(=O)N[C@@H](CCCCN)C(=O)N2	–	DA rat, pristane-induced arthritis, serum	subcutaneous, 0.1 mg/kg once weekly, 21 days	–	total protein	4.76 g/dL
COc1cc2ccnc(Cc3ccc(O[11CH3])c(OC)c3)c2cc1OC	–	Sprague-Dawley rat, cortex	i.v., 30 min	–	brain uptake	0.039 %ID/g
CN(C)C(CNC(=O)Nc1cc(C(F)(F)F)ccc1N1CCOCC1)c1ccncc1 (stereo not shown)	–	mouse, serum	intraperitoneal, 180 mg/kg single dose	–	serum total bilirubin	0.2 mg/dL
COc1ccc(C)cc1NC(=O)OC1CC2CCCC(C1)N2Cc1ccc(CC[18F])cc1 (stereo not shown)	–	mouse, blood	intravenous, 5 min, tumour-bearing	–	tracer uptake	1.88 %ID/g
CCCC[C@H](NC(=O)CN1CCC(NC(=O)CN2CCN(CC(=O)O)CCN(CC(=O)O)CCN(CC(=O)O)CC2)CC1)C(=O)N[C@H]1CC(=O)NCCCC[C@@H](C(N)=O)NC(=O)[C@H](Cc2c[nH]c3ccccc23)NC(=O)[C@H](CCCNC(=N)N)NC(=O)[C@@H](Cc2ccccc2)NC(=O)[C@H](Cc2c[nH]cn2)NC1=O [gallium-68 labelled]	PET/CT	human metastatic melanoma patients, brain	intravenous, 150 MBq, 60 min	–	SUVmax	0.05
NCCCC[C@H](NC(=O)[C@H](CCCCN)NC(=O)[C@H](CCCCN)NC(=O)c1cc(NC(=O)[C@H](CCCCN)NC(=O)[C@H](CCCCN)NC(=O)[C@@H](N)CCCCN)cc(NC(=O)[C@H](CCCCN)NC(=O)[C@H](CCCCN)NC(=O)[C@@H](N)CCCCN)c1)C(=O)O	UHPLC	human plasma	500 µM, 37 °C	–	serum stability time	< 4 min
CC(C)[C@@H]1NC(=O)[C@H](Cc2ccccc2)NC(=O)[C@H](Cc2ccc(O)cc2)NC(=O)CCSSC[C@@H](C(=O)N2CCC[C@H]2C(=O)N[C@H](CCCNC(=N)N)C(=O)NCC(N)=O)NC(=O)[C@H](CCC(N)=O)NC1=O	–	Wistar rat, blood	intravenous, 100 µg/kg single dose, 72 h	–	total protein	6.9 ± 0.5 g/dL
CN(C)c1ccc(C(=O)NCCCCN2CCN(c3ccccc3O[11CH3])CC2)cc1	–	Sprague Dawley rat, male, brain	intravenous, 30 min, together with: cyclosporin A pretreatment	reference: untreated control	brain uptake increase	8.82 fold and 8.8 fold
COC(=O)C[C@H](NC(=O)[C@H](C)NC(=O)[C@@H](NC(=O)[C@H](CC(=O)OC)NC(=O)[C@@H](NC(=O)c1ccc2ccccc2n1)C(C)C)C(C)C)C(=O)COc1c(F)cccc1F	–	rat pups	1 mg/kg, 1 h	–	arterial pH	7.42 ± 0.02
COc1cc(C(=O)NCCOCCOCCOCCNC(=O)c2ccc([18F])nc2)ccc1NC(=O)C1NC(CC(C)(C)C)C(C#N)(c2ccc(Cl)cc2F)C1c1cccc(Cl)c1F (stereo not shown)	–	athymic male mice, HepG2 xenograft	4 h	reference: tumour over muscle	tumour-to-tissue ratio	2.49 ± 0.58
CSCC[C@H](NC(=O)CNC(=O)[C@H](CC(=O)O)NC(=O)[C@@H](NC(=O)[C@@H](NC(=O)[C@@H](NC(=O)CNC(=O)[C@H](CCC(N)=O)NC(=O)[C@H](CCSC)NC(=O)[C@H](CC(=O)O)NC(=O)[C@H](C)NC(=O)[C@H](C)NC(=O)[C@@H](NC(=O)[C@H](CO)NC(=O)[C@@H](N)CC(C)C)[C@@H](C)O)C(C)C)C(C)C)[C@@H](C)O)C(=O)N[C@@H](C)C(=O)N[C@@H](CO)C(=O)NCC(=O)N[C@@H](CC(C)C)C(=O)N[C@@H](CC(=O)O)C(=O)N[C@@H](CCCCN)C(=O)N[C@@H](CC(=O)O)C(=O)N[C@@H](Cc1ccc(O)cc1)C(=O)N[C@@H](CC(C)C)C(=O)N[C@@H](CCCCN)C(=O)N1CCC[C@H]1C(=O)N[C@@H](CC(=O)O)C(=O)N[C@@H](CC(=O)O)C(=O)O	–	human, serum	intravenous, 4.16 mg/kg, patients, infusion	–	Vd	0.431 L/kg
CC[C@@H](C)[C@@H](NC(=O)[C@@H](C)NC(=O)[C@@H](CCCCN)NC(=O)[C@@H](CC(C)C)NC(=O)[C@@H](C)NC(=O)[C@H](NC(=O)[C@@H](Cc1c[nH]cn1)NC(=O)[C@@H](CC(C)C)NC(=O)[C@H](NC(=O)[C@H](NC(=O)[C@@H](CCCCN)NC(=O)[C@@H](CCCCN)NC(=O)[C@@H](C)NC(=O)[C@@H](CO)NC(=O)[C@@H](CCCCN)NC(=O)[C@@H](Cc1ccccc1)NC(=O)[C@H](NC(=O)[C@@H](CCCCN)NC(=O)[C@@H](CC(C)C)NC(=O)[C@@H](Cc1ccccc1)NC(=O)[C@@H](CO)NC(=O)[C@@H](CCCCN)NC(=O)[C@@H](Cc1c[nH]c2ccccc12)NC(=O)[C@@H](CCCCN)NC(C)=O)[C@H](C)O)[C@H](C)O)C(C)C)[C@H](C)O)C(=O)N[C@H](CO)C(=O)N[C@H](CO)C(N)=O	circular dichroism	50% trifluoroethanol buffer	5 °C	reference: reference peptide in TFE	helical content	88%
CC[C@H](C)[C@H](NC(=O)[C@H](C)NC(=O)CNC(=O)[C@@H](N)CCSC)C(=O)N[C@@H](C)C(=O)N[C@@H](CCCCN)C(=O)N[C@@H](CC(C)C)C(=O)N[C@H](C(=O)N[C@@H](C)C(=O)N[C@@H](CCCCN)C(=O)N[C@@H](Cc1ccccc1)C(=O)NCC(=O)N[C@@H](Cc1c[nH]c2ccccc12)C(=O)N1CCC[C@H]1C(=O)N[C@@H](Cc1ccccc1)C(=O)N[C@H](C(=O)N[C@@H](CCCCN)C(=O)N[C@@H](CCCCN)C(=O)N[C@@H](Cc1ccccc1)C(=O)N[C@@H](Cc1ccc(O)cc1)C(=O)N[C@@H](CCCCN)C(=O)N[C@@H](CCC(N)=O)C(=O)N[C@@H](CCCNC(=N)N)C(=O)N[C@@H](CCSC)C(=O)N[C@@H](CCC(N)=O)C(=O)N[C@@H](Cc1ccccc1)C(=O)N[C@H](C(=O)NCC(=O)N[C@@H](CCC(N)=O)C(=O)NCC(=O)N[C@@H](Cc1c[nH]c2ccccc12)C(=O)N[C@H](C(=O)N[C@H](C(=O)N[C@@H](CC(=O)O)C(=O)N[C@@H](CCC(N)=O)C(=O)N[C@H](C(=O)N[C@@H](CCC(=O)O)C(=O)N[C@@H](CCCCN)C(=O)N[C@@H](Cc1c[nH]c2ccccc12)C(=O)N[C@@H](CC(C)C)C(=O)N[C@@H](CCCCN)C(=O)N[C@@H](CCCNC(=N)N)C(=O)N[C@@H](Cc1c[nH]cn1)C(=O)O)[C@@H](C)CC)[C@@H](C)CC)[C@@H](C)O)[C@@H](C)CC)[C@@H](C)CC)C(C)C	thermal unfolding, far-UV CD	10 mM sodium phosphate	5-20 µM, pH 7.2	–	Tm	43.4 ± 0.3 °C
NC(=O)[C@H](Cc1ccccc1)N[11C](=O)OCc1ccccc1	dynamic PET	Wistar rat, male, whole brain	intravenous, 3 min	–	SUV max	1.5
CCCCCCCCCCCCC(=O)O.O=C1CCCC2C3CCCN4CCCC(CN12)C34 (stereo not shown)	electrical conductivity	water	308.15 K, critical micelle concentration	–	standard enthalpy of micellization	-0.884 kcal/mol
CC[C@H](C)[C@@H]1NC(=O)[C@H](CCC(=O)O)NC(=O)[C@H](C)NC(=O)[C@H](CC(C)C)NC(=O)[C@H](CC(C)C)NC(=O)C2(CCCC=CCCCCCC[C@@](C)(C(=O)N[C@@H](CC(N)=O)C(=O)N[C@@H](CC(C)C)C(=O)N[C@@H](CO)C(=O)O)NC(=O)[C@H](CCCCN)NC1=O)CCCC=CCCC[C@](C)(NC(=O)[C@H](CCCNC(=N)N)NC(=O)[C@H](CC(N)=O)NC(=O)[C@H](CCC(=O)O)NC(=O)[C@@H]1CCCN1C(=O)[C@H](CC(N)=O)NC(=O)c1ccc3c(c1)C(=O)OC31c3ccc(O)cc3Oc3cc(O)ccc31)C(=O)N[C@@H](C)C(=O)N[C@@H](CCCCN)C(=O)N[C@@H](CCCCN)C(=O)N2 (stereo partly shown)	–	–	–	–	solubility limit	2 µM (≈ 5.51 µg/mL)
CCc1c2c(nc3ccc(OC4OC(C(=O)O)C(O)C(O)C4O)cc13)-c1cc3c(c(=O)n1C2)COC(=O)C3(O)CC (stereo not shown)	–	human patients, plasma	intravenous, 313 mg/m2 of parent drug	–	AUC(0-inf)	4540 ng·h/mL
CC(C)[C@H](NC(=O)CNC(=O)[C@H](CCC(N)=O)NC(=O)[C@H](C)N)C(=O)O	–	human	1 mg/kg single dose	–	subjects with moderate adverse events	0%
CCc1cc2c(cc1N1CCC(N3CCOCC3)CC1)C(C)(C)c1c(c3ccc(C#N)cc3n1CC[18F])C2=O	PET	healthy nude mice, brain	–	–	brain clearance time	≤ 30 min
Cc1ccc(C(C)C)cc1.Clc1ccc2c(NCCNCc3ccccn3)ccnc2c1.[Cl-].[Cl][Ru+]	shake-flask method	water/n-octanol	pH 6.6	–	distribution coefficient D	8.84 ± 0.82

Excerpt of the above:
Compound	test	test system	conditions	scale	quantity	result
CSCC[C@@H]1NC(=O)[C@@H]2CSSC[C@H](NC(=O)[C@H](CO)NC(=O)[C@H](C)N)C(=O)N[C@@H](CCCNC(=N)N)C(=O)N[C@@H]([C@@H](C)O)C(=O)N3CCC[C@H]3C(=O)N[C@@H](CCCCN)C(=O)N[C@@H](CC(=O)O)C(=O)N[C@H]3CSSC[C@H](NC(=O)[C@H](CCCCN)NC(=O)[C@H](CCCNC(=N)N)NC(=O)[C@H](CC(N)=O)NC1=O)C(=O)N[C@@H](CCCCN)C(=O)N[C@H]1CSSC[C@H](NC(=O)[C@@H]4CCCN4C(=O)[C@H](CC(=O)O)NC(=O)[C@H](C)NC3=O)C(=O)N[C@@H](C)C(=O)N[C@@H](CCCCN)C(=O)N[C@@H](CCC(=O)O)C(=O)N[C@@H]([C@@H](C)O)C(=O)NCC(=O)N[C@@H](CSSC[C@@H](C(N)=O)NC(=O)[C@H](CCCNC(=N)N)NC(=O)[C@H](CC(N)=O)NC1=O)C(=O)N1CCC[C@H]1C(=O)N[C@@H](Cc1ccc(O)cc1)C(=O)NCC(=O)N[C@@H](CCCCN)C(=O)N2	–	DA rat, pristane-induced arthritis, serum	subcutaneous, 0.1 mg/kg once weekly, 21 days	–	total protein	4.76 g/dL
